Experimental data collected from several papers.
Compare with care: the assays were run in different laboratories. ≈ marks a conversion by molar mass, not a printed value.
rep main protease: Replicase polyprotein 1ab, main protease (rep, Severe acute respiratory syndrome coronavirus 2, UniProt P0DTD1)

SMILES = CC[C@H](C)[C@H](NC(=O)[C@H](CC(C)C)NC(=O)[C@H](Cc1c[nH]c2ccccc12)NC(=O)[C@H](CCC(N)=O)NC(=O)[C@@H](NC(=O)[C@H](Cc1ccccc1)NC(=O)[C@H](C)NC(=O)[C@H](CCCCNC(=O)COCCOCCNC(=O)COCCOCCNC(=O)CC[C@H](NC(=O)CCCCCCCCCCCCCCCCCCC(=O)O)C(=O)O)NC(=O)[C@H](CCC(N)=O)NC(=O)[C@H](C)NC(=O)[C@@H](NC(=O)[C@H](CCCCN)NC(=O)[C@H](CC(=O)O)NC(=O)[C@H](CC(C)C)NC(=O)C(C)(C)NC(=O)[C@@H](NC(=O)[C@H](CO)NC(=O)[C@H](Cc1ccc(O)cc1)NC(=O)[C@H](CC(=O)O)NC(=O)[C@H](CO)NC(=O)[C@@H](NC(=O)[C@H](Cc1ccccc1)NC(=O)[C@@H](NC(=O)CNC(=O)[C@H](CCC(=O)O)NC(=O)C(C)(C)NC(=O)[C@@H](N)Cc1ccc(O)cc1)[C@@H](C)O)[C@@H](C)O)[C@@H](C)CC)[C@@H](C)CC)C(C)C)C(=O)N[C@@H](C)C(=O)NCC(=O)NCC(=O)N1CCC[C@H]1C(=O)N[C@@H](CO)C(=O)N[C@@H](CO)C(=O)NCC(=O)N[C@@H](C)C(=O)N1CCC[C@H]1C(=O)N1CCC[C@H]1C(=O)N1CCC[C@H]1C(=O)N[C@@H](CO)C(N)=O; test = measured: treatment-emergent feeling hot; system = healthy subjects; conditions = 4.5 mg, multiple ascending dose; measurement = subjects with adverse event; value = 16.7%
SMILES = CNC(=NCCSCc1csc(N=C(N)N)n1)NC#N; tested on = Ebola virus Zaire; test = HIV/EBOV pseudovirion entry; system = A549; conditions = 48 h; measurement = IC50; value = > 100 µM
SMILES = Cc1cccc(CN2CC(=O)N[C@@H](CC(C)C)c3nc(cs3)C(=O)N[C@@H](Cc3ccccc3)c3nc(C)nn3CC(=O)N[C@@H](C(C)C)C2)n1; tested on = Lassa mammarenavirus; test = viral replication; system = Huh-7; conditions = 10 µM, 72 h; measurement = remaining activity; value = 85%
SMILES = CCCCN(CCCNC(=O)c1cc(Nc2ccc(OC)c(OC)c2)nc2ccccc12)Cc1ccccc1; tested on = SARS-CoV-2; test = cytopathic effect; system = USA_WA1/2020; conditions = round 2, 5-point; measurement = efficacy; value = 69.2%
SMILES = COc1ccc2cc1Oc1ccc(cc1)C[C@H]1c3c(cc4c(c3Oc3cc5c(cc3OC)CCN(C)[C@@H]5C2)OCO4)CCN1C; tested on = African swine fever virus; conditions = concentration not given; measurement = intracellular viral copies; value = decreased
SMILES = Nc1cc(N2CCC(CO)(CCCc3ccccc3)CC2)ncn1; tested on = Lassa mammarenavirus; test = viral replication; system = Huh-7; conditions = 10 µM, 72 h; measurement = remaining activity; value = 55%
SMILES = COc1cc(/C=C2/SC(=S)NC2=O)ccc1OCC(=O)O; tested on = rep main protease; test = viral replication, mKate2 reporter; system = SARS-CoV-2; conditions = 20 µM; measurement = inhibition; value = -0.978%
SMILES = Cc1cccnc1C(=O)N(CC#Cc1ccccc1)CC(C)C; tested on = Lassa mammarenavirus; test = viral replication; system = Huh-7; conditions = 10 µM, 72 h; measurement = remaining activity; value = 12%
SMILES = CC(C)(C)c1ccc(C(O)CCCN2CCC(C(O)(c3ccccc3)c3ccccc3)CC2)cc1 (stereo not shown); tested on = SARS-CoV-2; test = viral replication, GFP plate reader screen; conditions = cell-based; measurement = EC50; value = > 100 µM
SMILES = O=C(Nc1ccc(N2CCN(C(=O)c3cnccn3)CC2)nc1)c1ccncc1; tested on = Mycobacterium tuberculosis; test = bacterial growth; system = H37Ra-lux; conditions = 168 h; measurement = IC90; value = > 64 µM
SMILES = Cn1c(=O)ccc2ccc(F)c(CCNC[C@H]3CN(c4cnc5c(n4)NC(=O)CO5)C(=O)O3)c21; tested on = Francisella tularensis; measurement = MIC90; value = < 0.015 µg/mL
SMILES = CCCCN(CCCC)CCCOc1ccc(C(=O)c2c(CC)cc3ccccn23)cc1; tested on = SARS-CoV-2; test = viral replication, GFP plate reader screen; conditions = cell-based; measurement = EC50; value = > 100 µM
SMILES = Nc1ncnc2c1ncn2[C@@H]1O[C@@H]2COP(=O)(O)O[C@H]3[C@@H](O)[C@H](n4cnc5c(=O)[nH]cnc54)O[C@@H]3COP(=O)(O)O[C@H]2[C@H]1O; tested on = Chikungunya virus; test = upregulated Reactome pathway, RNA sequencing, measured: Chromatin organization (R-HSA-4839726); system = HFF-1; scale = baseline: CHIKV-infected untreated; measurement = fold enrichment; value = 2.41
SMILES = CCc1csc(CNC(=O)c2sc(OC)nc2C)n1; tested on = Lassa mammarenavirus; test = viral replication; system = Huh-7; conditions = 10 µM, 72 h; measurement = remaining activity; value = 53%
SMILES = CN(C)CCNC(=O)c1ccc2c(c1)C1(CCN(CC3CC3)C1)CN2Cc1ccccc1 (stereo not shown); tested on = SARS-CoV-2; test = cytopathic effect; system = USA_WA1/2020; conditions = round 2, 5-point; measurement = maximum response; value = 94.3%
SMILES = Cc1nc2n(n1)CC(=O)N[C@@H](C(C)C)CN(C(=O)CN(C)C1CCCC1)CC(=O)N[C@@H](CC(C)C)c1nc(cs1)C(=O)N[C@H]2Cc1ccccc1; tested on = Lassa mammarenavirus; test = viral replication; system = Huh-7; conditions = 10 µM, 72 h; measurement = remaining activity; value = 98%
SMILES = [O-][N+]1=C(c2ccc(Cl)cc2)C2=NCCN2c2ccccc21; tested on = Clostridium perfringens; measurement = MIC90; value = 1 µg/mL (≈ 3.36 µM)
SMILES = O=C(/C=C/c1ccc(O)c(O)c1/C=C/c1ccc(O)c(O)c1)O[C@H](Cc1ccc(O)c(O)c1)C(=O)O; tested on = SARS-CoV-2; test = cytopathic effect; system = Vero E6; conditions = 25 µM, replicate run; measurement = mean inhibition; value = 0%
SMILES = COc1cc2c(cc1OCC1CC1)NC(=O)C21CCN(c2cc(NC3CC3)ncn2)CC1; tested on = SARS-CoV-2; test = cytopathic effect; system = USA_WA1/2020; conditions = round 1, 5-point; measurement = efficacy; value = 71.9%
SMILES = C[C@@H](Oc1cc(-c2cnn(C3CCNCC3)c2)cnc1N)c1c(Cl)ccc(F)c1Cl; tested on = SARS-CoV-2; test = viral replication, GFP plate reader screen; conditions = cell-based; measurement = EC50; value = 6.76 µM
SMILES = COc1ccc(N2CCN(CCCNC(=O)c3cc(Nc4ccc(OC)cc4OC)nc4ccccc34)CC2)cc1; tested on = SARS-CoV-2; test = cytopathic effect; system = USA_WA1/2020; conditions = round 2, 5-point; measurement = maximum response; value = 73.6%
SMILES = CNC(=O)[C@@H](NC(=O)[C@H](CC(C)C)[C@H](O)C(=O)NO)C(C)(C)C; tested on = Daboia russelii; system = C2C12; conditions = 100 µM, added: Daboia russelii venom AP; scale = baseline: venom alone; measurement = viability difference; value = -75.4%
SMILES = NC(=O)c1ncn([C@@H]2O[C@H](CO)[C@@H](O)[C@H]2O)n1; tested on = Lassa virus; test = viral replication; conditions = concentration not given, ZsGreen reporter virus, added: cytidine, uridine, guanosine; measurement = reversal of antiviral activity; value = no effect
SMILES = Nc1nc(Nc2ccc3c(c2)CC[C@@H](N2CCCC2)CC3)nn1-c1cc2c(nn1)-c1ccccc1CCC2; tested on = SARS-CoV-2; test = viral replication, high-content imaging screen; system = BetaCov/Belgium/GHB-03021/2020; conditions = cell-based; measurement = EC50; value = > 50.1 µM
SMILES = O=C(CCn1cc[nH]c(=O)c1=O)N[C@@H]1CCCC12CN(C(=O)c1cccc3c1C(=O)NC3)C2; tested on = rep main protease; test = enzyme activity, inhibitor; conditions = 5 µM; measurement = inhibition; value = 14%
SMILES = CCc1c(C(=O)C(N)=O)c2c(OCC(=O)O)cccc2n1Cc1ccccc1; tested on = Daboia russelii; system = C2C12; conditions = 100 µM, added: Daboia russelii venom MP; scale = baseline: venom alone; measurement = viability difference; value = -61.9%
SMILES = COc1cccc(CNC(=O)C2CCN(Cc3cc4ccccc4n3Cc3ccccc3)CC2)c1OC; tested on = SARS-CoV-2; test = cytopathic effect; system = USA_WA1/2020; conditions = round 2, 5-point; measurement = maximum response; value = 41.8%
SMILES = O=C(Nc1ccc(N2CCN(C(=O)c3cnccn3)CC2)nc1)c1cnccn1; tested on = Mycobacterium tuberculosis; test = bacterial growth; system = H37Ra-lux; conditions = 168 h; measurement = IC90; value = > 64 µM
SMILES = COc1ccc(C[C@@H]2c3cc(Oc4cc(C[C@@H]5c6cc(O)c(OC)cc6CCN5C)ccc4O)c(OC)cc3CCN2C)cc1; tested on = SARS-CoV-2; test = viral replication; system = Vero E6; conditions = 50 µM; scale = baseline: mean of replicates; measurement = CPE inhibition; value = 16.7%
SMILES = Cc1nc(N(C)CCC(O)c2ccccc2)c2ccsc2n1 (stereo not shown); tested on = Lassa mammarenavirus; test = viral replication; system = Huh-7; conditions = 10 µM, 72 h; measurement = remaining activity; value = 54%
SMILES = Cn1cnc(Cn2c(=O)[nH]/c(=N\c3cc4cn(C)nc4cc3Cl)n(Cc3cc(F)c(F)cc3F)c2=O)n1; system = human, normal renal function; conditions = oral, 375 mg, decreased GFR TEAE, Moderate severity; measurement = patients with adverse event; value = 0%
SMILES = CCCCN(C)CCNC(=O)c1cc(-c2ccc(Cl)s2)nc2ccccc12; tested on = SARS-CoV-2; test = cytopathic effect, cell-based CPE; system = USA_WA1/2020; conditions = round 1, 5-point dilution; measurement = AC50; value = 4.47 µM
SMILES = CC(C)[C@H](O)C(=O)N[C@@H](C)C(=O)N[C@@H]1C(=O)N(C)c2ccccc2-c2ccccc21; tested on = rep main protease; test = viral replication, mKate2 reporter; system = SARS-CoV-2; conditions = 20 µM; measurement = inhibition; value = -0.475%
SMILES = Cc1ccccc1CN1C(=O)c2ccccc2Sc2ccc(C(=O)NCCCN3CCOCC3)cc21; tested on = SARS-CoV-2; test = cytopathic effect; system = USA_WA1/2020; conditions = retest, 8-point, duplicates; measurement = maximum response; value = 40.8%
SMILES = CCOC(=O)Oc1c(OC)cc(C(=O)O[C@@H]2C[C@@H]3CN4CCc5c([nH]c6cc(OC)ccc56)[C@H]4C[C@@H]3[C@H](C(=O)OC)[C@H]2OC)cc1OC; tested on = SARS-CoV-2; test = viral replication, high-content imaging screen; conditions = cell-based; measurement = EC50; value = > 100 µM
SMILES = OCC1CCCN(CCNC2CCN(c3ccccc3Cl)CC2)C1 (stereo not shown); tested on = Lassa mammarenavirus; test = viral replication; system = Huh-7; conditions = 10 µM, 72 h; measurement = remaining activity; value = 48%
SMILES = NC(=O)c1nc(F)c[nH]c1=O; tested on = influenza A virus; test = viral replication; system = MA104, H7N9; measurement = EC50; value = 12 µM
SMILES = COc1cccc2c1C(=O)c1c(O)c3c(c(O)c1C2=O)C[C@@](O)(C(=O)CO)C[C@@H]3O[C@H]1C[C@H](N)[C@H](O)[C@H](C)O1; tested on = SARS-CoV-2; test = viral replication, high-content imaging screen; conditions = cell-based; measurement = EC50; value = 33.1 µM
SMILES = CCn1c2ccccc2c2cc(CN3CCN(Cc4cccc(Cl)c4)CC3)ccc21; tested on = SARS-CoV-2; test = cytopathic effect, cell-based CPE; system = USA_WA1/2020; measurement = AC50; value = 14.1 µM
SMILES = CCOC(=O)Nc1ccc(NCc2ccc(F)cc2)nc1N; tested on = SARS-CoV-2; test = viral replication, high-content imaging screen; conditions = cell-based; measurement = EC50; value = > 100 µM
SMILES = O=C(CC1CCCCC1)Nc1ncc(Cc2ccccc2)s1; tested on = Histoplasma capsulatum; test = microbial growth; measurement = MIC; value = 1.3 to 2.5 µM (≈ 0.409 to 0.786 µg/mL)
SMILES = CC1c2ccccc2C(CCCN(C)C)c2cc(C(F)(F)F)ccc21 (stereo not shown); tested on = SARS-CoV-2; test = viral replication, high-content imaging screen; system = BetaCov/Belgium/GHB-03021/2020; conditions = cell-based; measurement = EC50; value = 10.5 µM
SMILES = Nc1ncnc2c([C@@H]3N[C@H](CO)[C@@H](O)[C@H]3O)c[nH]c12; tested on = Marburg virus; system = HeLa, Musoke; conditions = 50 µM, 1 h; measurement = viral RNA copies; value = 1.02e+06 copies/mL

Some of these lines once more:
SMILES = CC(C)[C@H](O)C(=O)N[C@@H](C)C(=O)N[C@@H]1C(=O)N(C)c2ccccc2-c2ccccc21; tested on = rep main protease; test = viral replication, mKate2 reporter; system = SARS-CoV-2; conditions = 20 µM; measurement = inhibition; value = -0.475%
SMILES = COc1ccc2cc1Oc1ccc(cc1)C[C@H]1c3c(cc4c(c3Oc3cc5c(cc3OC)CCN(C)[C@@H]5C2)OCO4)CCN1C; tested on = African swine fever virus; conditions = concentration not given; measurement = intracellular viral copies; value = decreased
SMILES = CCc1csc(CNC(=O)c2sc(OC)nc2C)n1; tested on = Lassa mammarenavirus; test = viral replication; system = Huh-7; conditions = 10 µM, 72 h; measurement = remaining activity; value = 53%
SMILES = COc1cc(/C=C2/SC(=S)NC2=O)ccc1OCC(=O)O; tested on = rep main protease; test = viral replication, mKate2 reporter; system = SARS-CoV-2; conditions = 20 µM; measurement = inhibition; value = -0.978%
